Experimental data from different studies.
Lines come from different studies, so protocols differ.

Cn1cc(C(N)=O)c(NC2C3CC4CC2CC(OS(=O)(=O)O)(C4)C3)c2ccnc1-2 (centres unmarked)
Tmax (median) (Japanese adults, moderate hepatic impairment, plasma; oral, 150 mg single dose): 3 h

CCCC(CCC(=O)O)NC(=O)c1ccc2c(c1)OCO2 (centres unmarked)
Tmax (female Sprague-Dawley rat, plasma; oral, 20 mg/kg of parent drug): 26.4 min

N[C@@H](COc1ccccc1C(F)(F)F)c1ccccc1
Tmax (male Sprague-Dawley rat; intravenous, 5 mg/kg): 10.8 min

O=c1nc(NO)ccn1[C@@H]1O[C@H](CO)[C@@H](O)[C@H]1O
Tmax ratio (male Wistar rats, plasma; oral, 30 mg/kg; baseline: CFA-arthritic over normal rats): 1.8 fold

NC(=O)c1cnc2[nH]ccc2c1NC1C2CC3CC1CC(OS(=O)(=O)O)(C3)C2 (centres unmarked)
Tmax (median) (Japanese adults, moderate hepatic impairment, plasma; oral, 150 mg single dose): 1.5 h

Cc1cc(-c2ccc(NC(=S)Nc3ccc(CNC(=O)CCC(C(=O)O)N4CCN(CC(=O)O)CCN(CC(=O)O)CC4)cc3)c(C)c2)ccc1/N=N/c1ccc2c(S(=O)(=O)O)cc(S(=O)(=O)O)c(N)c2c1O (centres unmarked)
Tmax (dynamic PET/CT; Sprague-Dawley rats female, cisterna magna; intracisternal infusion, median): 30 min

CCCC(CCC)NC(=O)c1ccc(OS(=O)(=O)O)c(OC)c1
Tmax (female Sprague-Dawley rat, plasma; oral, 200 mg/kg of parent drug): 52.8 min

Cc1ccc(OCC(=O)O)cc1
Tmax (Sprague-Dawley rat, female, plasma; oral, 10 mg/kg/day of parent drug, day 1, 90-day repeated dosing): 60 min

A few entries again:
CCCC(CCC(=O)O)NC(=O)c1ccc2c(c1)OCO2 (centres unmarked)
Tmax (female Sprague-Dawley rat, plasma; oral, 20 mg/kg of parent drug): 26.4 min
